Measured values from different studies.
Parts stem from different laboratories: compare values within a part only.

Series 1
Target: RNA binding protein fox-1 homolog 2, RRM domain, GST-SBP tag (RBFOX2, Homo sapiens, UniProt O43251-10, residues 100-194)
Method: RNA Bind-n-Seq
Form: RNA
Matrix: in vitro
Concentration: 365 nM
Setting: natural RNA segment, single round, ends assumed
Baseline: no-protein control
Direction: higher = stronger binding
Residues (chain): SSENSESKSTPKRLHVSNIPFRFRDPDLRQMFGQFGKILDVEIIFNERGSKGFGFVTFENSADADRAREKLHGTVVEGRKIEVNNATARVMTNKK
Oligonucleotide	RBNS enrichment (R)
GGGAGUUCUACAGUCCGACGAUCCUUCUCUAAACAUCCUACAGAGAAGGUUCCAAAGCUGAGCACCCAUCACCCUAGGUGUGCACCAGACUCCUAUUAGCCCCUCCUUCCAGGAGCUAGAACCAGGGAGGUCCUGGAAUUCUCGGGUGCCAA	0.202
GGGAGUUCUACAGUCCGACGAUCAUUUUGAGAUCAGUCUUUAUUAAUAAAACCUGUUCUCUUUAAUCAGCUUAAAAUCCAAAGUGUCAUAUUUACUGGUCCUGGAGACAAACUUGUUCAAAAGAACAUCAACGUGGAAUUCUCGGGUGCCAA	0.302
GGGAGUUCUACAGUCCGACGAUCGUUGGAGCCCCUGCAUCCCCUGGGUCCAGCCCCCUCUGCAUUUACACAGAUUUGAGUCAGAACUGGAAAGUGUCCCCCACCCCCACCACCCUCGAGCGGGGUUCCCCUCAUGGAAUUCUCGGGUGCCAA	1.21
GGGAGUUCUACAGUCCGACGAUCCACCUGGAACUGGAUUGGGAAGAGAACAGGACUUGGUGGCCAGGACCGCUCAGAGAGCCAUGGUUGCUCAGGGAUGCUGCUCCGGGAUGCUUGACUAACAGUCGAGGCAGUGGAAUUCUCGGGUGCCAA	1
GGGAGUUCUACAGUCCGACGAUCUUUUAUUUUCUUCUUUGGUCAUGGGGGCCAAGGAGAAAGGCAUGAAUCUUCCCUGUCAGGCUCUUACAGCCACAGGCACUGUGUCUACUGUCUGGAAGACAUGUCCCCAUUGGAAUUCUCGGGUGCCAA	0.943
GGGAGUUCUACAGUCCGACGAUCCCUUCCAUCUGAUUUGCCUGGCCAUGCCAUCCAGUCCUUGUACAUAUAUACCUUGGAGUCCCAUACACUUAGGAAACUCCAAGGAGACACGUCCUGCUCAUCCCCGCCCCUGGAAUUCUCGGGUGCCAA	0.301
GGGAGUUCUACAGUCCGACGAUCUAGUCAUCCACAGAUGGCAAAACUGGACUUGAUUCUACUGGCAUGUAAGACAGGCGUGCUAGUGAGCAGUCGUGUGUGGCUCUGGACUCUGACCCCAGAGCUCUGAAGAAUGGAAUUCUCGGGUGCCAA	1.19
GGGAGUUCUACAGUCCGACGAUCUGUAUCCAAGAAAGCAAGCAAAUGAAAAGAAACCUAUUUAUGGAAUAAACUCCAGAUCUGAAAUUCAGUAUUUUAGAAAAAUGCCAGCUCUUCUUACUGUAUUUAUUAAAUGGAAUUCUCGGGUGCCAA	1.24
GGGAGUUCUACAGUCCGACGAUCAGCGGAGCAGAUGCCUGUCCAAGCUGGUCAAGUCCUUCUAGUUCUUGGGCUGAAAUAAGUAACAGUCUGAGGCAGCCUGCGCCACAGUAAAGUGUGUUGGUUUGCUUGGAUGGAAUUCUCGGGUGCCAA	0.263
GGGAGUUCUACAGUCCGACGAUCAUAGGACAUAGGGUAAAGAGGCCAAGCUGCCUGUAGUUAGUAGAGAAGAAUGGAUGUGGUUCUUCUUGUGUAUUUAUUUGUAUCAUAAACACUUGGAACAACAAAGACCAUGGAAUUCUCGGGUGCCAA	2.49
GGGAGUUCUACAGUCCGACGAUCAUGGUUUUCUUUACAUGAACAAAUGAACAAAAGAGAUCCUAGAUCCAUAACGUAGCUAAGGCAUCUAAGAGUUUGCUGUUGAUAAUCUUGCUGACCAAAAACUACUGGAGUGGAAUUCUCGGGUGCCAA	0.452
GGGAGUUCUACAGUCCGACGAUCAUGUUCUGCUGCGUCCCCACCGUGACCUGCCUGGCCUCCCCUGUCUCAGGGAGCAGGUCACAGGUCACCAUGGGGAAUUCUAGCCCCCACUGGGGGGAUGUUACAACACCUGGAAUUCUCGGGUGCCAA	0.301

Series 2
Target: Interferon regulatory factor 7, full length, phosphomimetic (IRF7, Homo sapiens, UniProt Q92985, residues 1-503, S101K/S471D/S472D/S475D/S476D/S477D/S483D/S484D/S487D)
Method: protein-binding microarray
Form: double-stranded DNA, one strand shown
Matrix: in vitro
Concentration: 250 nM
Setting: 60-bp whole probe
Together with: salmon DNA 0.4 mg/ml
Baseline: random background probes
Direction: higher = stronger binding
All sequences stand within: GCCTAGCAC … GTCTTGATTCGCTTGACGCTGCTG
Residues (chain): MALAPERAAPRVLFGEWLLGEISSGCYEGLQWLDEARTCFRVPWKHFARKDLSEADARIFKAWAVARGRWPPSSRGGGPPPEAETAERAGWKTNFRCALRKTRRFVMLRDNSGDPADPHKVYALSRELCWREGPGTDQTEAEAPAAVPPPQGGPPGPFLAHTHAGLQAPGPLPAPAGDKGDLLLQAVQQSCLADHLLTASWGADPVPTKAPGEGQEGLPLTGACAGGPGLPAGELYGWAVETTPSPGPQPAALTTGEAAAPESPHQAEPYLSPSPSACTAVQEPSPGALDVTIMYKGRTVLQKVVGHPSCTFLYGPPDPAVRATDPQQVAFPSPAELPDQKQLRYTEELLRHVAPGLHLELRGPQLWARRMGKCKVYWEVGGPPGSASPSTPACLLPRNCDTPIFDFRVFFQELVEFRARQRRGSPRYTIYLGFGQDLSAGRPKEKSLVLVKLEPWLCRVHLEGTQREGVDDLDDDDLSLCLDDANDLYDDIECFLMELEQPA
Oligonucleotide	log fluorescence [z-score]
TGTGGTGCAGCTCCCTCCTCGTGCTAG	-1.02
GACGGTATCGGGACTGGGAACGTGCTA	-0.18
TTAGGTCTCGTACTGGGTTAGTGCTAG	0.615
GACGGTATCCTTCTTCTGACGTGCTAG	0.393
CTTTTTTTCAAGAAACAGTTCGTGCTA	1.74
GACGGTATCGGGTATCGGGAGGTGCTA	0.59
TTAGGACTGGACTATCGGTTCGTGCTA	-0.16
TCAAAAATGATGTTTTAGACTGTGCTA	-0.343
TTAGGACTGCTACTGCTGTAGTGCTAG	-0.637
TTCGGTATCGACTTTCGGTTAGTGCTA	3.12
GACGATATCGGGACTAGAGACGTGCTA	-0.307
TTAGCTTTCGACTATCGGTTAGTGCTA	0.546
TCACGTTACTTCCTCAAACTGTGCTAG	0.704
TCAGGTTTCCTTCTCCTTTAGTGCTAG	2.42
TTAGCTATCAGTATCGATTAGTGCTAG	0.367
TCACCCCTAGGGGGCAGTATGTGCTAG	0.536
TCATTTATAAATTATCTTACTGTGCTA	1.23
GACGGACTGAGTTTCGGGACGTGCTAG	2.35
TCAAGTTTTCCTTCATGACTGTGCTAG	1.74

Series 3
Target: Prothrombin, mature alpha-thrombin (F2, Homo sapiens, UniProt P00734)
Method: aptamer microarray, sandwich
Form: DNA with 2'F-ANA
Matrix: in vitro
Concentration: 200 nM
Setting: whole 15-mer aptamer, many near background
Together with: Cy3 exosite-II aptamer, 400 nM
Direction: higher = stronger binding
Oligonucleotide: GGTTGGTGTGGTTGG
Modification	mean fluorescence intensity [a.u.]
2'F-ANA at 1 6 7 8 13 14	57.1
2'F-ANA at 6 8 10 12 13 14	145
2'F-ANA at 3 6 11 13	823
2'F-ANA at 1 2 6 8 9 11 12	323
2'F-ANA at 3 4 5 9 10 11 12 15	57.9
2'F-ANA at 1 2 3 5 6 9 12 13 14 15	101
2'F-ANA at 1 3 4 6 11 12 14 15	81
2'F-ANA at 1 3 6 7 8 9 10 11	84.2
2'F-ANA at 2 3 5 6 7 8 10 13 14	49.7
2'F-ANA at 1 3 5 6 9 10 11 12 15	58.3
2'F-ANA at 2 3 5 6 7 9 11 13 14 15	48
2'F-ANA at 1 2 3 4 8 9 14 15	74.3
2'F-ANA at 1 3 4 6 8 9 11 14	69.3
2'F-ANA at 2 3 4 8 10 13 14 15	167
2'F-ANA at 4 6 7 9 10 14 15	64.1
2'F-ANA at 3 5 7 9 12 13 15	171

Series 4
Target: RING finger protein unkempt homolog, zinc fingers 1-6, GST-SBP tag (UNK, Homo sapiens, UniProt Q9C0B0, residues 30-357)
Method: RNA Bind-n-Seq
Form: RNA
Matrix: in vitro
Concentration: not given
Setting: RNA with constant flanks, human-mouse chimeric sites, ends assumed
Baseline: input RNA pool
Direction: higher = stronger binding
Residues (chain): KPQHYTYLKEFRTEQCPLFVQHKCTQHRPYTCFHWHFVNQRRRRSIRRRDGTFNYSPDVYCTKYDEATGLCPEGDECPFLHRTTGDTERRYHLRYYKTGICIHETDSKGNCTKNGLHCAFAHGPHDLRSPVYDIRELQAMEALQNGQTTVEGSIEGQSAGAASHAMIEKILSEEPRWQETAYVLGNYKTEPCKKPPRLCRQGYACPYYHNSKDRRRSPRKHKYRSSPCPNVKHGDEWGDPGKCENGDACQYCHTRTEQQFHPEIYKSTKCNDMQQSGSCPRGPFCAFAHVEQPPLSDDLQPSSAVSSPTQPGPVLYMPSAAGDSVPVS
Oligonucleotide	bound/input enrichment [ratio]
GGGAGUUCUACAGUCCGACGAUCCCAAUUGUGGAGCAGUACUUGAAGACAAAGAAAAAUUCUAAUAAUUUAAUCAUCAAGUACAUUAGCUGCCGCCUGCUGACAUUUGUGAUUAUACUGUUAGCGUGUAUCUACCUGGGCUAUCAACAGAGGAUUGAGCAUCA	0.311
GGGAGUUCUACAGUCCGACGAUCGGUGGGGUGGUCAUUGCCGUUUGAGCUCUGCUGAUUCAUGAGUCGCCCAUUCAGAACUCGUGUAGGGUUGACAAUGUGGGGGGGUGGGGGAUCCAGCUUAUUCUUUUAUUUUCAAGUCCACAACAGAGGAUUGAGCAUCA	0.958
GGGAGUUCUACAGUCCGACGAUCUCUUUAAAAAAAAAAUUACCUUUUCUGACAGUGCUUUCCCUCCCAUAGAUCCACGUUCAAGCUCAAAGAGCAAAGGCUCCGCAAACAGCUCAAACAUCUGAUGAAGAUUUUUGAGACAGACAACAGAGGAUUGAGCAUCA	1.32
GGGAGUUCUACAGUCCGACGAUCUCAGGAACCCAGACAAACAUGAAUGUAAAUGAAGUCAUUAGCAACAGAGCAAUUGAAAUGUUAGGAGGUGAACUUGGCAGCAAGAAGCCUGUGCAUCCCAACGAUCAUGUUAACAAAAGCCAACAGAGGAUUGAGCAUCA	0.243
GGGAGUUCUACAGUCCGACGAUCUAUUUUUGACAGCCACACAAUCUUGGCAUGUAUUAAGAAAAAAAAAAAUCCCUGUUGAAGUAGUUUUUCCACCUAUCAGCACUGAGUAAAUGCCAUAACUCCGCGGAAAUGGUCUAAAUACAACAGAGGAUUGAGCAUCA	0.204
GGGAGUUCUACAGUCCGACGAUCAGAAUCUUGGGACUGUUUUACUUAAUUGGUCAUUGAUAGCUUAACAAACAUGGAGAUAAGAUUAGAAGUUUUGACAUCAACAGGUAUCAAGCAGAAAAAACCAUGGCCACGUGUCUCCUGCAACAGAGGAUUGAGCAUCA	0.454
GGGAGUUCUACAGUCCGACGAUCCAUGUAUCUGCAGUACUUGAUGUGGACUACUCUCCCACUGGGAAGGAAUUUGUGUCUGCUAGUUUCGAUAAGUCUAUUAGAAUCUUUCCUGUGGACAAGAGCCGAAGCAGGGAAGUGUAUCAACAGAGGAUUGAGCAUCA	1.29
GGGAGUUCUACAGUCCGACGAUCAGAUUCCCUCUCUUAAAACCUCCUCCGAAGUUGGAGUCUCUUACAGAUGCCUCAUCCCCUGUUAGCGUUUUAGUUUGGACCACCCAGCCUUGGACAAUUCCCGCCAAUGAAGCUGUUUGCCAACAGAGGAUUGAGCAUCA	2.31
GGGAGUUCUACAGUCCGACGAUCAGGAGGAGGUUAAAGGGUGAGAGUGGGGUGGAAGACUGUGUCAUGGCUCUGGAGACAUUGUUUAGUGUCCUGCUUUCUCUGUGCAGACUUAUGGCUCCUUACACGCCCUUUCUGACUGAGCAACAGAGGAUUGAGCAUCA	0.0792
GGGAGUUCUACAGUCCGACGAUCGGAAGUACAAUGAUGGAGAUUGAUGGUGACAAAGGCAAGCAGGGCGGUCCCACCUACUACAUAGACACCAAUGCCCUCCGCGUGCCCAGGGAGAACAUGGAGGCCAUCUCACCACUCAAGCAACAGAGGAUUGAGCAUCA	0.267
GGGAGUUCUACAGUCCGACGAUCGCAGGAUCUUCUAAAUACCAGUGGGGCAUUAUGAAAUCCCUUGGGCUCUCUGAUGACGACAUAGUGAAGUUUUCUGAAGCAGAGCACUGGCUUGAUUAUUUCCCACCACUGGCCGUUCAGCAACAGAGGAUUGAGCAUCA	0.0857

Repeated from above (series 3):
Modification	mean fluorescence intensity [a.u.]
2'F-ANA at 2 3 4 8 10 13 14 15	167
2'F-ANA at 1 2 3 5 6 9 12 13 14 15	101
2'F-ANA at 1 3 4 6 8 9 11 14	69.3
2'F-ANA at 1 3 5 6 9 10 11 12 15	58.3
2'F-ANA at 1 3 6 7 8 9 10 11	84.2
